Published values of several laboratories.
A part holds a random share of what one study measured.

Sample 1 — method: RNA Bind-n-Seq; form: RNA; matrix: in vitro; tested at: 1 µM; setting: whole 134-nt RNA, ends assumed; added: 150 mM KCl; baseline: input library; direction: higher = stronger binding; endpoint: log2 enrichment
Target: Ras GTPase-activating protein-binding protein 1, RRM domain (G3BP1, Homo sapiens, UniProt Q13283)
UniProt Q13283, sequence (whole entry, looked up): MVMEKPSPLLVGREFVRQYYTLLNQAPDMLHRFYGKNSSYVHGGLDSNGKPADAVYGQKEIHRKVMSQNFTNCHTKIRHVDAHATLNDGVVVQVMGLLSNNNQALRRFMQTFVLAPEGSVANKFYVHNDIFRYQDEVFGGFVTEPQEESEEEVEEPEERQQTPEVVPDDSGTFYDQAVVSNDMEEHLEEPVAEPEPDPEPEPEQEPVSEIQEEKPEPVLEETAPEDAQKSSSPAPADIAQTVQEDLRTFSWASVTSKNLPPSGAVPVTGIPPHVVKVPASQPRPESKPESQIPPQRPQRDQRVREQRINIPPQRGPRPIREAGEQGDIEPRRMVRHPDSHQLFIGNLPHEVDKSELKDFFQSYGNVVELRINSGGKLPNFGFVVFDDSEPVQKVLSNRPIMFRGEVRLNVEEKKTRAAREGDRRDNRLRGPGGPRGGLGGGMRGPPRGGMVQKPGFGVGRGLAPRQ
Shared flanks, not repeated: GGGAGUUCUACAGUCCGACGAUC … UGGAAUUCUCGGGUGUCAAGG
Strand = UCAAGUCCUGUGCUACACAUCGUAUGUACCGAAUCGGGCCCGGCCCGGGCCCGGAAAGUAUUAUGUUACGCCGUUCGGAUCUGCACUUCC; value = -0.562
Strand = UGGACUGCCUAUGGAAGAAGAAGUUCAAGAAGGAGCACGAGGAGUUUGAGACCAUGGAGAACGUGAACCGCCUUCUUCUGGAGAACGUCC; value = -0.173
Strand = UAGGUGUUAUCUUCAGGAAGGCACACUGGACCUGCUAAAUUAACAAAUGGAAAGAAAGCGUAAGUACUUGAAGACGUUUACAACUUCAGA; value = -0.307
Strand = UGGGAGGUGGAUUUUGUUUAGUUUUUUAGCUCAUUUCCAGGGGUGGGAAUUUUUUUUUAAUAUGUGUCAUGAAUAAAGUUGUUUUUGAAA; value = 0.925
Strand = UCAGAAGGUCUUUUAAGUCUGACCACCCAGCUUGUCAAGGAAAAACUCUCCACCUGUGAAGCAGAGGACAUCGCCACCUAUGAGCAGAAU; value = 0.0161
Strand = AAACUUUAGAGGAGGAUCUGAUGGAUAUGGCAGUGGACGUGGAUUUGGGGAUGGCUAUAAUGGGUAUGGAGGAGGACCUGGAGGUGGCAA; value = -0.785
Strand = GCAGGAAGUAAAAACAAAUGGAAAUGAUUCGGAUAGUGGCAGGGGUGGGGGUUGCUAAGGAAAGGGUGGGAUGGGAGUGGGUAAAGAGUU; value = 1.19
Strand = UCCUGUGCUACACAUCGUAUGUACCGAAUCGGGGUUUUUGGGGUUUUUGGGUUUUUGGGGAAAGUAUUAUGUUACGCCGUUCGGAUCUGC; value = 0.107

Sample 2 — method: competition protein-binding microarray; form: double-stranded DNA, one strand shown; matrix: in vitro; tested at: 2 µM; added: Pho4 competitor, 0.05 µM; direction: higher = stronger binding; endpoint: fluorescence intensity; shared flanks, not repeated: … GTCTTGATTCGCTTGACGCTGCTG
Target: Centromere-binding protein 1, full length, His-tagged (CBF1, Saccharomyces cerevisiae, UniProt P17106, residues 1-351)
UniProt P17106, sequence (whole entry, looked up): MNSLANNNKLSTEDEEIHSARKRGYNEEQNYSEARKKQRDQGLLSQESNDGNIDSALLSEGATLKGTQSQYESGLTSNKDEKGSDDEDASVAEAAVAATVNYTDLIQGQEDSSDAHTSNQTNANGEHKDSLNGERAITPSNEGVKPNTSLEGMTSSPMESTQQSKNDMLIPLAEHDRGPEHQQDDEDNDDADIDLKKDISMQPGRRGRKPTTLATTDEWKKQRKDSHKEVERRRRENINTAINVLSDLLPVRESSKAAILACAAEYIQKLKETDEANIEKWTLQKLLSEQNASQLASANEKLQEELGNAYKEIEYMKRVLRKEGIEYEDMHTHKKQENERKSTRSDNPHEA
Setting: whole 60-bp probe, lowest competitor level
Strand = CGGGGTTAAGTTTGAGCTGTGGGTGGCTTGCAGCAG; value = 67.3 a.u.
Strand = CTTCTGTAAATTTGGGGAGTGGGTGGACGCGCCCCG; value = 73.9 a.u.
Strand = CGTCCTAGTGATTTTCACGTGTTCTCCATGAGGAAG; value = 1410 a.u.
Strand = AGGTTTTGCTAAATCTATGTGACAGTAATGACCAGG; value = 95.3 a.u.
Strand = TGCGCAACAACTTGTCACCTTACTTTATGTCTAGAA; value = 74.6 a.u.
Strand = TTTATGTGGCCTTAAATTTTCGACCTATGGTTCACT; value = 73.1 a.u.
Strand = CGGGGTTAAGTTTTGCACGTGTTTTGCTTGCAGCAG; value = 1390 a.u.
Strand = CCAGGGGAGTAGTGAACCGTGCCAGCACCTCGGGTA; value = 47.7 a.u.

Sample 3 — cell line: HEK-293T; observed: pseudovirus infection; method: FDA-approved drug library screen; organism: VSV pseudotyped with SARS-CoV-2 spike; tested at: 10 µM; time: 16 h; baseline: vehicle-treated; endpoint: GFP-positive cells
Structure (SMILES) = CN(C)c1nc(N(C)C)nc(N(C)C)n1; value = 77.7%
Structure (SMILES) = C[N+]1(C)CCCC(OC(=O)C(O)(c2ccccc2)c2ccccc2)C1 (centres unmarked); value = 77.4%
Structure (SMILES) = CC(NC(C)(C)C)C(=O)c1cccc(Cl)c1 (centres unmarked); value = 77%

Sample 4 — observed: enzyme activity; action: inhibitor; tested at: 20 µM; endpoint: inhibition
Target: Replicase polyprotein 1ab, polymerase (rep, Severe acute respiratory syndrome coronavirus 2, UniProt P0DTD1)
Structure (SMILES) = CS(=O)(=O)Nc1ccc(-c2coc3cc(OCc4cccc(C(=O)O)c4)ccc3c2=O)cc1; value = 3%
Structure (SMILES) = O=C1NC(=S)NC(=O)C1C(=O)Nc1ccccc1; value = 4.53%
Structure (SMILES) = Cc1ccc(F)cc1C(=O)Nc1ccc(C(=O)N2Cc3cccn3Cc3ccccc32)c(Cl)c1; value = -0.77%
Structure (SMILES) = Cc1nc(Cn2cnc3c2c(=O)n(C)c(=O)n3C)no1; value = 5.61%
Structure (SMILES) = CC(=O)Nc1ccc(C(=O)Nc2ccccc2N)cc1; value = 0.42%
Structure (SMILES) = Cc1nc(C)c(Cl)c(O)c1Cl; value = -2.73%
Structure (SMILES) = N[C@@H](C(=O)N[C@@H]1C(=O)N2C(C(=O)O)=C(Cl)CC[C@H]12)c1ccccc1; value = -1.62%
Structure (SMILES) = Nc1ccc(S(=O)(=O)NC(=O)c2ccccc2)cc1; value = 24.4%
Structure (SMILES) = Clc1ccc(C2=CCC[C@@H]3CC[C@H]2N3)cn1; value = -7.53%
Structure (SMILES) = Clc1ccc(C(c2ccccc2Cl)C(Cl)Cl)cc1 (centres unmarked); value = 0.35%
Structure (SMILES) = O=C/C=C/c1ccccc1; value = -2.07%
Structure (SMILES) = CCN(Cc1ccc(Cl)nc1)/C(=C/[N+](=O)[O-])NC; value = -6.08%
Structure (SMILES) = CCN(CC)CCCC(C)Nc1nc(C)cc(Nc2ccc3nc(C)cc(N)c3c2)n1 (centres unmarked); value = -6.96%
Structure (SMILES) = CN(C)C/C=C/C(=O)Nc1ccc(C(=O)Nc2cccc(Nc3ncc(Cl)c(-c4c[nH]c5ccccc45)n3)c2)cc1; value = 11.9%
Structure (SMILES) = CCCCCCCCCCCCCCCC(=O)OCCC1CCN(CCCN2c3ccccc3Sc3ccc(S(=O)(=O)N(C)C)cc32)CC1; value = -1.67%
Structure (SMILES) = O=C(O)c1ccccc1C(=O)Nc1ccc(S(=O)(=O)Nc2nccs2)cc1; value = 22.9%
Structure (SMILES) = CCc1cc2c(cc1CC)CC(NC[C@H](O)c1ccc(O)c3[nH]c(=O)ccc13)C2; value = -3.77%
Structure (SMILES) = N=C(N)SCCc1c[nH]cn1; value = 1%
Structure (SMILES) = COc1cc2c(cc1OC(C)C)[C@H](c1ccc(Cl)cc1)N(c1ccc(N(C)C[C@H]3CC[C@H](N4CCN(C)C(=O)C4)CC3)cc1)C(=O)C2; value = -2.87%
Structure (SMILES) = CC#CCn1c(N2CCC[C@@H](N)C2)nc2c1c(=O)n(Cc1nc(C)c3ccccc3n1)c(=O)n2C; value = -0.27%
Structure (SMILES) = CCCCCCCCC(=O)NCc1ccc(O)c(OC)c1; value = 0.49%
Structure (SMILES) = CNCCC=C1c2ccccc2CCc2ccccc21; value = 17.5%
Structure (SMILES) = COc1ccc(C(=O)Nc2c(Cl)cncc2Cl)cc1OC1CCCC1; value = -6.41%
Structure (SMILES) = CCCCNC(=O)NS(=O)(=O)c1ccc(C)cc1; value = 20.1%
Structure (SMILES) = CN(C)C(=O)C(=O)c1cn(C)c2cc(Cl)c(C(=O)N3CCC(Cc4ccc(F)cc4)CC3)cc12; value = -12.5%

Sample 5 — method: protein binding microarray; form: double-stranded DNA, one strand shown; matrix: in vitro; tested at: not given; baseline: not given; direction: higher = stronger binding; endpoint: E-score
Target: Histone acetyltransferase KAT6A, winged helix 2, GST fusion (KAT6A, Homo sapiens, UniProt Q92794, residues 85-181)
Setting: 8-mer, flanks averaged, mean of 2 arrays, mostly near background
Construct (chain): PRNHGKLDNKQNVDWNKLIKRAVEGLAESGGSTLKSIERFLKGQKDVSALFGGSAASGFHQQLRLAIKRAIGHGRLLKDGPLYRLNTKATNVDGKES
Strand = ACATCTGG; value = -0.166
Strand = ATCCAACG; value = -0.0351
Strand = AGCTATCG; value = 0.0144
Strand = GCGGGGCC; value = 0.254
Strand = GGATGCCA; value = -0.00624
Strand = TCCCACCA; value = -0.0373
Strand = ACGGCGAC; value = 0.115
Strand = CCACGTCC; value = -0.126

Single results of other studies
SMILES = Nc1nc(=S)c2ncn([C@@H]3O[C@H](CO)[C@@H](O)[C@H]3O)c2[nH]1; target = Replicase polyprotein 1ab, main protease (rep, Severe acute respiratory syndrome coronavirus 2, UniProt P0DTD1); assay = fluorogenic substrate cleavage, inhibitor; conditions = 60 min preincubation, 37 °C, added: 1 mM DTT; endpoint = IC50; value = 1450 nM

For quick reference, copied from above (sample 4):
Structure (SMILES) = COc1cc2c(cc1OC(C)C)[C@H](c1ccc(Cl)cc1)N(c1ccc(N(C)C[C@H]3CC[C@H](N4CCN(C)C(=O)C4)CC3)cc1)C(=O)C2; value = -2.87%
Structure (SMILES) = O=C/C=C/c1ccccc1; value = -2.07%
Structure (SMILES) = CCCCNC(=O)NS(=O)(=O)c1ccc(C)cc1; value = 20.1%
Structure (SMILES) = O=C1NC(=S)NC(=O)C1C(=O)Nc1ccccc1; value = 4.53%
Structure (SMILES) = CCN(CC)CCCC(C)Nc1nc(C)cc(Nc2ccc3nc(C)cc(N)c3c2)n1 (centres unmarked); value = -6.96%
Structure (SMILES) = Nc1ccc(S(=O)(=O)NC(=O)c2ccccc2)cc1; value = 24.4%
